Published values collected from several papers.
Lines come from different studies, so protocols differ. ± marks the error that the study gave.

Under mRNA level, `C=CCC1C(=O)C=C(OC)C2(OC)C(C)C(c3ccc4c(c3)OCO4)OC12` (single isomer, unassigned; (-)) is recorded as “decreased” (measured: collagen 1α, α-SMA, TGF-β; mouse, bile duct ligation, liver; dose not given).
`FC(F)(F)Oc1ccc(/N=c2\oc3ccccc3cc2-c2ccccc2)cc1` has an oedema reduction of 27.9 ± 2.5% (rat, formalin paw oedema; intraperitoneal, 10 mg/kg, 1 h).
For `CNc1oc(-c2cccc3ccccc23)nc1C#N`, glucose tolerance read “no effect” (glucose tolerance test; CD1 mice; ip, 24 mg/kg daily, 2 weeks; reference: untreated).
`CC=CC(CC(=O)O)c1ccc(OCc2ccc(-c3cc(OC)ccc3F)cc2)cc1` (centres unmarked) gave a GLP-1 release of 1.4 ± 0.14 fold change (measured: total GLP-1; colonic crypt cultures, Gpr40 knockout, mouse, ex vivo; 1 µM, 2 h; reference: vehicle).
Under “time to blood pressure fall”, `O=C(OCc1cccc(O)c1O)c1ccc(O)c(CO)c1` is recorded as ≤ 24 h (C57BL/6J mice; dose not given, dosed days 7-14, together with: angiotensin II infusion).
`CCCCCCCCCCCCCCCC(=O)OCC(CSC[C@H](N)C(=O)N[C@@H](CO)C(=O)N[C@@H](CCCCN)C(=O)N[C@@H](CCCCN)C(=O)N[C@@H](CCCCN)C(=O)N[C@@H](CCCCN)C(=O)NCCCCCC(=O)N[C@@H](CCCCN)C(=O)N[C@@H](CC(C)C)C(=O)N[C@H](C(=O)N[C@@H](Cc1ccccc1)C(=O)N[C@@H](Cc1ccccc1)C(=O)N[C@@H](Cc1ccc2ccccc2c1)C(=O)O)C(C)C)OC(=O)CCCCCCCCCCCCCCC` (some centres unmarked): “OC+ TS- plaque area” “increased” (APP/PS1 mouse; intracortical, dose not given, 2 d; reference: vehicle).
`C[C@H](NC(=O)COC(=O)[C@H](C)NC(=O)CO)C(=O)O` — result for “depolymerization rate constant”: 22.7 h⁻¹ (water; pH 7, 50 °C).
`CC(C)CN(CC(C)C)C(=O)/C=C/C=C/c1ccc2c(c1)OCO2`: “time in open arms” 45.1 ± 5.7% (elevated plus maze; C57BL/6N mice; ip, 1 mg/kg, 30 min before test; reference: total time).
`CCOC(=O)Cc1csc(NC(=O)CN2CCN(C)CC2)n1` — result for “inhibition in vivo”: 47.9% (paw oedema; mouse; intraperitoneal, 200 µmol/kg).
`CSCC[C@H](N)C(=O)N1CCC[C@H]1C(=O)NCC(=O)NCC(=O)O` — result for “ΔS‡ at 298.15 K”: -19 ± 3 J/(mol·K) (diketopiperazine formation, transition state theory; 1-propanol; 70, 80, 90 °C, 0.5% acetic acid).
`COc1ccc(C2CC(c3ccc(C)cc3)=Nc3ccccc3S2)cc1` (centres unmarked) has an HDL cholesterol of 47.5 ± 2.22 mg/dL (Wistar rat, STZ-induced diabetes, serum; 10 mg/kg, 28 days).
`O=C1CCN(Cc2ccccc2)CC1C(C[N+](=O)[O-])c1ccccc1` (centres unmarked): “tail flick response” 35.1% (tail immersion test; BALB/c mice; ip, 25 mg/kg, 1 h).
For `CCCc1nc2cc(C(=O)N3CCC4(CC3)CC(=O)c3cc5c(cc3O4)OC(C)(C)CC5)cc(C)c2[nH]1`, liver fibrosis read “inhibited” (Sirius red staining, measured: Col1a1 mRNA, collagen; C57BL/6J male mouse, HFD-induced NASH; intragastric, dose not given, daily).
Under “inhibition in vivo”, `O=C(CCN1CCC(O)CC1)Nc1nc(-c2ccccc2)cs1` is recorded as 47.5% (paw oedema; mouse; intraperitoneal, 200 µmol/kg).
Under phospho-EGFR, `C=CC(=O)Nc1cc(Nc2nccc(-n3ccc4nc(OC)ccc43)n2)c(OC)cc1N(C)CCN(C)C` is recorded as “inhibited” (BALB/c nude mouse, H1975 xenograft; oral, 60 mg/kg, 24 h).
`CCC1CC2C(C)=CC3C(=O)CCCC3C=CC(C)=CC2C(=O)O1` (centres unmarked) — result for “Iba-1 level reduction”: 22.7% (western blot; 5XFAD transgenic mouse, hippocampus; oral, 30 mg/kg/day three times per week, 1 month; reference: vehicle).
For `FC(F)(F)c1ccccc1/N=c1\oc2ccccc2cc1-c1ccccc1`, the oedema reduction was 20.2 ± 1.7% (rat, formalin paw oedema; intraperitoneal, 10 mg/kg, 1 h).
`N#Cc1ccc(-c2cc(=O)c3ccc4[nH]c(C(F)(F)F)nc4c3o2)cc1`: “time in target quadrant” “increased” (Morris water maze probe trial; 5xFAD mice; dose not given, 60 s; reference: vehicle).
For `CC[C@H]1[C@@H](O)[C@@H]2[C@H](CC[C@]3(C)[C@@H]([C@H](C)CCOS(=O)(=O)[O-])CC[C@@H]23)[C@@]2(C)CC[C@@H](O)C[C@@H]12.[Na+]`, the liver weight was 8 ± 0.3% (ob/ob NASH mouse model; oral, 10 mg/kg once daily, 8 weeks; reference: body weight).
Under “inhibition in vivo”, `CN1CCN(CC(=O)Nc2nccs2)CC1` is recorded as 61% (paw oedema; mouse; intraperitoneal, 200 µmol/kg).
The HDL cholesterol of `COc1ccc2c(c1OC)C(C(Cl)(Cl)Cl)N1CCc3cc4c(cc3C1=C2)OCO4` (centres unmarked) is reported as 37.8 ± 1.77 mg/dL (rat, STZ-induced diabetic, serum; oral, 12 mg/kg, day 28).
Under IL-6 secretion, `CCCCCCCCC/C=C/C=C/C(=O)N[C@H](C(=O)N[C@H]1C[C@@H](O)CCNC(=O)/C=C/[C@H](C)NC1=O)[C@@H](C)O` is recorded as “inhibited” (ELISA; splenocytes, C57BL/6 mouse; dose not given, together with: LPS).
`O=C(O)CNC(=O)CNC(=O)[C@@H]1CCCN1C(=O)[C@@H]1CCCN1` — result for “enthalpy of activation”: 17.9 ± 0.239 kcal/mol (diketopiperazine formation, transition state theory; 1-propanol; concentration not given, 70, 80, 90 °C, 0.5% acetic acid).
With `COc1cc(CN2CCN(c3cccc(Cl)c3)CC2)c2cc3[n+](cc2c1O)CCc1cc2c(cc1-3)OCO2` the FRAP absorbance was 0.781 ± 1.23 a.u. (ferric reducing power, FRAP; 10 µg/mL, 30 min; higher is greater reducing power).
`Cc1ccc(C(=O)Nc2ccc(CP(=O)(O)O)cc2CP(=O)(O)O)cc1NC(=O)c1cccc(NC(=O)Nc2cccc(C(=O)Nc3cc(C(=O)Nc4ccc(CP(=O)(O)O)cc4CP(=O)(O)O)ccc3C)c2)c1` gave a PT of 14.2 ± 1.3 s (human plasma; 282 µM).
`C=CC(=O)Nc1cccc(-c2cnc3[nH]cc(C(=O)NC(C)(C)C)c3n2)c1` — result for “onset of phospho-STAT5 suppression”: ≤ 2 h (mouse, NK-S1 xenograft, tumour; ip, 50 mg/kg).
`CC(C)C1=C(O)C(=O)C2=C(C=C[C@H]3C(C)(C)CCC[C@]23C)C1=O` gave an HORAC of 0.294 Trolox equivalents (hydroxyl radical absorbance capacity, fluorometric).
`CN(C)c1cc2ccccc2c(N)n1`: fibrotic area “decreased” (ICR mouse, CCl4 liver fibrosis; intraperitoneal, 1 and 3 mg/kg daily).
For `CCCCCCOC(=O)Cc1c(C)n(C(=O)c2ccc(Cl)cc2)c2ccc(OC)cc12`, “latency of nociceptive response” read 15.6 ± 1.51 s (hot plate test; BALB/c mice; 75 mg/kg, 90 min).
`COc1ccc(C2CC(c3ccc(C)cc3)=Nc3ccccc3S2)cc1OC` (centres unmarked) gave a blood glucose of 109 ± 4.11 mg/dL (rat, normal, overnight fasted; oral, 20 mg/kg, 90 min, oral glucose tolerance test, together with: glucose 3 g/kg oral).
`COc1cc(CN2CCN(c3ccc([N+](=O)[O-])cc3)CC2)c2cc3[n+](cc2c1O)CCc1cc2c(cc1-3)OCO2` gave an FRAP absorbance of 0.005 ± 0.73 a.u. (ferric reducing power, FRAP; 10 µg/mL, 30 min; higher is greater reducing power).
For `NCCCC[C@H](N)C(=O)N1CCC[C@H]1C(=O)NCC(=O)NCC(=O)O`, “enthalpy of activation” read 22.9 ± 6.21 kcal/mol (diketopiperazine formation, transition state theory; 1-propanol; concentration not given, 70, 80, 90 °C, 0.5% acetic acid).
`CCNC(=S)NNS(=O)(=O)c1ccc2c(c1)n(C)c(=O)c(=O)n2C` gave a blood glucose of 95.3 ± 5.48 mg/dL (IPGTT; HFD/STZ diabetic male albino mice; 10 mg/kg, 3 h).
For `CN1CCC[C@]1(C)/C=C/S(=O)(=O)NC(=O)Nc1c2c(cc3c1CCC3)CCC2`, the inhibition was ~90% (IL-18 release; human, whole blood ex vivo; oral, 12.5 mg, 12 h after last dose, multiple ascending dose, together with: LPS and ATP).
`C=C(c1ncc(C(=O)O)cn1)c1cc2c(cc1C)C(C)(C)CCC2(C)C` — result for “log2 fold change”: -0.93 (RNA sequencing, measured: Acot1 mRNA; rat, brain; dose not given, 24 h, single dose; reference: vehicle).
`O=C(/C=C/c1ccc(O)c(O)c1)OCCCC[P+](c1ccccc1)(c1ccccc1)c1ccccc1` — result for “cytochrome c release”: 60 pmol/mg protein (rat liver mitochondria; 10 µM, 15 min).
For `O=c1cc(-c2ccc(O)c(O)c2)oc2cc(O[C@@H]3O[C@H](CO)[C@@H](O)[C@H](O)[C@H]3O)cc(O)c12`, “nitric oxide scavenging” read 67.7 ± 0.02% (200 µg/mL, together with: sodium nitroprusside).
For `C[C@@H](O)[C@H](N)C(=O)N1CCC[C@H]1C(=O)NCC(=O)NCC(=O)O`, “enthalpy of activation” read 17 ± 1.91 kcal/mol (diketopiperazine formation, transition state theory; 1-propanol; concentration not given, 70, 80, 90 °C, 0.5% acetic acid).
